# Published values of several laboratories.
# Numbered parts are unrelated; each lists some results of a single study. Positions count from the first letter of the parent shown.

# Set 1
# Target: Ras GTPase-activating protein-binding protein 1, C-terminal RGG region (G3BP1, Homo sapiens, UniProt Q13283)
# UniProt Q13283, sequence (whole entry, looked up): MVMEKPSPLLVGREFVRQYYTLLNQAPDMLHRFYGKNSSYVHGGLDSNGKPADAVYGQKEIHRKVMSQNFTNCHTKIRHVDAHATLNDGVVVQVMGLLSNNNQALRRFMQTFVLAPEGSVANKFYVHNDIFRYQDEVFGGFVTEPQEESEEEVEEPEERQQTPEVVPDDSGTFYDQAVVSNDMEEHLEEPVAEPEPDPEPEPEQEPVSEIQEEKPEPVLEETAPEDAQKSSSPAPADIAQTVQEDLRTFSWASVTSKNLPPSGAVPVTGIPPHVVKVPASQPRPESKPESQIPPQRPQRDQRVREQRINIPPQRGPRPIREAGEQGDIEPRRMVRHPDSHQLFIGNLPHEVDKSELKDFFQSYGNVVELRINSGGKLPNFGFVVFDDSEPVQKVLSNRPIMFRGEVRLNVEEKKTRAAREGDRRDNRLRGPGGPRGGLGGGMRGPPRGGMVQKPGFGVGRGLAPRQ
# Technique: RNA Bind-n-Seq
# Molecule type: RNA
# Medium: in vitro
# Tested at: 1 µM
# Setting: whole 134-nt RNA, ends assumed
# Added: 150 mM KCl
# Relative to: input library
# Reading: higher = stronger binding
# All sequences stand within: GGGAGUUCUACAGUCCGACGAUC … UGGAAUUCUCGGGUGUCAAGG
Strand,log2 enrichment
GUCCUGUGCUACACAUCGUAUGUACCGAAUCAAAGUGUGUGUGUGUGUGUGUGUGAAAAAAGUAUUAUGUUACGCCGUUCGGAUCUGCAC,1.07
UGGCCCUGGUGGCAUGCGGGGAGGCAGAGGUGGCCUCAUGGAUCGUGGUGGUCCCGGUGGAAUGUUCAGAGGUGGCCGUGGUGGAGACAG,2.36
CAAGUCCUGUGCUACACAUCGUAUGUACCGAAUCGGGGCCCGGGCCCGGCCCGGGGAAAGUAUUAUGUUACGCCGUUCGGAUCUGCACUU,-2.33
UCAAGUCCUGUGCUACACAUCGUAUGUACCGAAUCGGGAAAGGGUUUGGGUGGGAAAGUAUUAUGUUACGCCGUUCGGAUCUGCACUUCC,1.78
UCAAGUCCUGUGCUACACAUCGUAUGUACCGAAUCGGUUUGGGGUUUGGGUUUGGAAAGUAUUAUGUUACGCCGUUCGGAUCUGCACUUC,-0.868
UCAAGUCCUGUGCUACACAUCGUAUGUACCGAAUCGGCCGGGCCGGGGCCGGGGAAAGUAUUAUGUUACGCCGUUCGGAUCUGCACUUCC,-1.56
UCCUGUGCUACACAUCGUAUGUACCGAAUCAAACCCCCAAACCCCCCCAAAUUUUUAAAAAAGUAUUAUGUUACGCCGUUCGGAUCUGCA,-0.527
ACCAUGCAGGUGGGCAUCUUUGGGAAGUCGGGCAAGGGGGGGAUAGGGAGGGGGGUAACACUUUGGGAACAGGUGGUCCCAGGUCGUUUC,-1.14
AGUCCUGUGCUACACAUCGUAUGUACCGAAUCGGGUUUUUUUGGGUUUGGGAAAGGGAAAGUAUUAUGUUACGCCGUUCGGAUCUGCACU,0.768
GUCCUGUGCUACACAUCGUAUGUACCGAAUCGGUUUUUGGGGUUUUUGGGUUUUUGGGGAAAGUAUUAUGUUACGCCGUUCGGAUCUGCA,-0.624
AGUCCUGUGCUACACAUCGUAUGUACCGAAUCGGGGAAAAAAAGGGGAGGGGUGGGGAAAGUAUUAUGUUACGCCGUUCGGAUCUGCACU,1.82
CACAGACAACAAACACCCACACAGACACAGAGGGAAGGGGUUGGGAUGGGGACAGGGUGCACAGCAGGGCGGGGUAGGACCCCAGCCCCU,-0.501

# Set 2
# Target: RNA binding protein fox-1 homolog 2, RRM domain, GST-SBP tag (RBFOX2, Homo sapiens, UniProt O43251-10, residues 100-194)
# Technique: RNA Bind-n-Seq
# Molecule type: RNA
# Medium: in vitro
# Tested at: 365 nM
# Setting: natural RNA segment, single round, ends assumed
# Relative to: no-protein control
# Reading: higher = stronger binding
# All sequences stand within: GGGAGUUCUACAGUCCGACGAUC … UGGAAUUCUCGGGUGCCAA
Strand,RBNS enrichment (R)
CAAAUAGAAAAACAAAACCUAUUUUGAUCUUUAGUGCAAACGAGGGCUAGGGACUUAGCCUCCUCCACCACCUCCACACUGCUUCAUUCUGCCAUUCACUCACUGCAGCA,0.521
UUGAGUAUUAACCUUACAUUUUACCCGACUUAAGGAGGAAUAGUAGUGUAAGAGCUGCCCGGCUCCCUGGAGUAAAGCGCUACACGCAAGUUCCCAUAAAGCAAACAGGG,0.718
UUAGUGAGCUCAUUUCACACAGAUCGAGGGGGUAUGCGUGGGGGAGUUGUGAGUGAGCUCAGCUCCUUCAGGCCUGGCCUCUCCCAGAACAGAGUGAAGCCCCUGCCCUG,0.725
UGGACUUGUAUGGGAUUGUCUUCUUGAUUUGAAUUGUACCGUCUUUGUUGACACAGUAGGGCUGGGCAGUGUUUAAUCCUUCCAUUUUAUAGAUUUUUUUUUAAUCAGGC,0.864
UACAAGGUGCCAGGCACCUCCUUUCUGCAUGUGCCUGCCUUUCUAGUAGCAGACAGAUGGAAACAUUGUCUCAUUUUGUCAAGGAGUCCAAAGAAAUGAUUAUAAAACCA,3.06
UAUAUUCCUGUAAAUGUCAGUUACUGAAAAUGAGUCCAAUGUAAGUAGUUUAGCUUGUUUAUUGCAAUGCUGGCCUCAACACAACAGAAUAAAAAUGGUAGAAAGUACUC,1.01
UUUCAGUACAAAUGAAAGAAAAGUGGUUUUAAUCAGUGAUUUAGUGGACCUUGAGCAACUGUGCACGCUUCACUCUAAUAGCAUGGUUUGGCCAGUGUAUUAGCUCUCAA,0.709
UCACUGGGUUUCUGGAUUAUUCCCAUAAAGACUGCCUGUCAAGAGGCCGGAGGUGUGUGUGGGGGGUUGCUCUGUUGUUUCCUUCCUAAUAAAAUAAAGACGUGUUGCCU,0.604

# Set 3
# Target: CCNB1, cyclin fold, Cln2 fusion (human)
# Technique: yeast growth competition, sequencing
# Medium: yeast
# Setting: strong parent motif
# Relative to: not given
# Reading: higher = stronger binding
# Starting sequence: PKN2 docking peptide (human); VSAVRKLDFSDTM
Change,normalised enrichment score
A3Q,0.402
L7F,-0.206
L7K,0.278
S10G,3.98
V4M,1.25
D11C,2.94
T12K,3.64
F9T,0.168
T12C,4.01

# Further values, each from its own experiment
Molecule,target,test,test system,setting,how to read,endpoint,value
"PhoQ, residues 284 288 289 292 302 303 ASVMEA","PhoP, residues 12 14 15 18 19 STHWV (Escherichia coli, UniProt P23836)","Sort-seq, measured: YFP reporter",E. coli,"PhoQ-PhoP variant library, added: 10 µM Mg2+","relative to: high Mg2+ state, higher = stronger signaling",fold induction,20.2

# Some of these lines once more (set 1):
Strand,log2 enrichment
CAAGUCCUGUGCUACACAUCGUAUGUACCGAAUCGGGGCCCGGGCCCGGCCCGGGGAAAGUAUUAUGUUACGCCGUUCGGAUCUGCACUU,-2.33
UGGCCCUGGUGGCAUGCGGGGAGGCAGAGGUGGCCUCAUGGAUCGUGGUGGUCCCGGUGGAAUGUUCAGAGGUGGCCGUGGUGGAGACAG,2.36
UCAAGUCCUGUGCUACACAUCGUAUGUACCGAAUCGGUUUGGGGUUUGGGUUUGGAAAGUAUUAUGUUACGCCGUUCGGAUCUGCACUUC,-0.868
AGUCCUGUGCUACACAUCGUAUGUACCGAAUCGGGGAAAAAAAGGGGAGGGGUGGGGAAAGUAUUAUGUUACGCCGUUCGGAUCUGCACU,1.82
